Experimental data from different studies.
Each numbered part is a random draw from the data of one study; scales do not carry over between parts. Changes are numbered by the printed parent chain.

Block 1
Target: RING finger protein unkempt homolog, zinc fingers 1-6, GST-SBP tag (UNK, Homo sapiens, UniProt Q9C0B0, residues 30-357)
UniProt Q9C0B0, sequence (30-357, looked up): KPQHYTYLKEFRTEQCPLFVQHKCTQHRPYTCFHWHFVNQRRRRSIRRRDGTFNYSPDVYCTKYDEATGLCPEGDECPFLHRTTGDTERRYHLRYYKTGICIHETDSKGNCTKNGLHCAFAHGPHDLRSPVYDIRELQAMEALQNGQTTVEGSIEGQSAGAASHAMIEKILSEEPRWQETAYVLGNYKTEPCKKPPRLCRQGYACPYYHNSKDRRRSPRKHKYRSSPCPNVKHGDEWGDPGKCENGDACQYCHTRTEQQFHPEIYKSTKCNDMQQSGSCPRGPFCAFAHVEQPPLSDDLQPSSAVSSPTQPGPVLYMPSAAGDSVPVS
Method: RNA Bind-n-Seq
Form: RNA
Matrix: in vitro
Tested at: not given
Setting: RNA with constant flanks, human-mouse chimeric sites, ends assumed
Baseline: input RNA pool
Reading: higher = stronger binding
Measurement: bound/input enrichment
Constant ends, left off below: GGGAGUUCUACAGUCCGACGAUC … CAACAGAGGAUUGAGCAUCA
Sequence = UCAGGAACCCAGACAAACAUGAAUGUAAAUGAAGUCAUUAGCAACAGAGCAAUUGAAAUGUUAGGAGGUGAACUUGGCAGCAAGAAGCCUGUGCACCCCAACGAUCAUGUUAACAAAAGC; value = 0.271 ratio
Sequence = AUGGAGAAGGAUUCUCUGCCUCGCUUUGUGCGCUCUGAAUUUUAUAAGGAGCUAAUCAAGUAGUAAUCUGGUCAGGCUUCCAAAAGUUGCCCUGUGAGUUGAGUUACAUCCUUUGUAGCA; value = 0.193 ratio
Sequence = AACAGAUUGUCUUUAAGCAUUCCAAGCGAGAAUGCUGGGGUGAUCAUUGUUGCCCAUGUGCCUUCUGACUGAGCUUUAAUGCUGUUCAUCCUUGAUGCUUUCCUUCACUCCAGAAUUGUU; value = 0.164 ratio
Sequence = AAAGGCAAAAAGGGCAGCUGUGUCAUUUCAUAAGUAACUCUGGGGGAGGGAAAUUCUGUUCUUUUGUUUAAUUUUCCCCCAGAUAAAGCCAAAGUGUGUGUUGAAGAACUGAGAAAAAAU; value = 0.308 ratio
Sequence = UCAUUUUUCUCUUUUCUUUCUUUCCUUUAGGAAAAGCCUAAAGAUUAGUAAGAAAAGAAAAUAGAAGCCAUGUUUCGAAGACCUGUGUUACAGGUAUUUCGUCAGUUUGUAAGACAUGAG; value = 0.305 ratio
Sequence = AGAGCCCAGGAUGUUGAUGCUACAAAUCCAAAUUAUGAAAUUAUGUGUAUGAUCAGAGACUUCAGAGGGAGCUUGGAUUACAGACCCUUAACAACAGCAGAUCCUAUUGAUGAACAUAGG; value = 0.481 ratio
Sequence = AAAGAAUGGAUAGAGUGUGCACACGGGAUCGGUGGGACCCGGGCGAAAAAGGAGUGCAAGAUAGAGUUCGAUGACUUCGUAGAGUGUUUGCUUCGGUACAAAACGAUGAGGCGAAUGCAU; value = 0.621 ratio
Sequence = CCUCUGCCCCGCUCUGCAGCCUGGGGACACUGGGCUGGGACCAGAAUCCAGCUUUCUUUUAAAACUCUCAGUGUAACUUCUUUUUCUGACAUUUCAUUUUUUUUAAAUAGUGUAUUUUUU; value = 5.32 ratio
Sequence = ACUCAGAGAUCCACCUCCCAAAGUGCUGGGAGUAAAGGUGUGGCCACCACACCUAACUUGAUGGAUAUUUUAUAAAGCUCUUUUAUGUCUUCCUGUUCGUCCAGGGAAGAAAGAUUUGUU; value = 0.258 ratio
Sequence = UUAAACACCAAGCUGAUGGACUCUGAUGGCCUCCAUCAAGGUAUUAUGUGUGCCUUCUCUUAGUCCCUGUUUUCGGGAUGUUAUGAAUCUCAGUACUGUGGUUUGAAAGCACCAGCUUUG; value = 0.143 ratio
Sequence = CAGCCUCAGAGCCCAGACUUCCUGGAUAUUACCAACCCUAAAGCGGUAUUAGAAAAUGCAUUGAGAAACUUCGCCUGUCUGACGACUGGGGAUGUGAUUGCUAUCAACUAUAAUGAAAAG; value = 0.52 ratio

Block 2
Target: ABI1, truncated, D143A, DHFR fusion (Arabidopsis thaliana)
Method: DHFR PCA, deep sequencing
Matrix: yeast
Setting: methotrexate growth selection, single substitutions
With: (+)-ABA 0.11 µM
Baseline: wild-type fitted maximum
Reading: higher = stronger binding
Measurement: relative binding score
Parent: PYL1, truncated, DHFR fusion (Arabidopsis thaliana); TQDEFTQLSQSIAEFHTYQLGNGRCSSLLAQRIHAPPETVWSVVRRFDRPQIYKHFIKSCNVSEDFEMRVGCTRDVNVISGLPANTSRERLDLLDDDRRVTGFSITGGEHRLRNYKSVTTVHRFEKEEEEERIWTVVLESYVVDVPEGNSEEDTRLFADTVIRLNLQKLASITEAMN; partner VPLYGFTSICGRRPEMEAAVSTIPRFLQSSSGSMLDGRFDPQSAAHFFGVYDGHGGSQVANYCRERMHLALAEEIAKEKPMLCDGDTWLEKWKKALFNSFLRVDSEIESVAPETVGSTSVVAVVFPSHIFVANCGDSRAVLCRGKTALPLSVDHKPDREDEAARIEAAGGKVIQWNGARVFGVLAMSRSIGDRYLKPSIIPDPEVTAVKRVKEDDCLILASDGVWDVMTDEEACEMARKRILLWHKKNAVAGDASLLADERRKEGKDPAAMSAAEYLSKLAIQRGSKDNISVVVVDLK
Change = T154M; value = 6.09%
Change = T86S; value = 31%
Change = Q10P; value = 33.1%
Change = K116R; value = 43.2%
Change = R74C; value = 3.49%
Change = P50H; value = 3.29%
Change = A175P; value = 10.4%
Change = V137D; value = -0.597%
Change = V100T; value = -7.6%
Change = E4V; value = 34.5%
Change = T119H; value = 3.02%
Change = F157C; value = 7.16%
Change = G23V; value = 0.71%
Change = V100F; value = 2.49%
Change = R113Q; value = 53.5%
Change = P36A; value = 15.7%
Change = Q51R; value = 7.92%
Change = Q10G; value = 38.2%
Change = R69K; value = 61.1%
Change = V70E; value = 8.6%
Change = P37W; value = -0.969%
Change = K54E; value = -3.92%

Block 3
Target: RNA binding protein fox-1 homolog 2, RRM domain, GST-SBP tag (RBFOX2, Homo sapiens, UniProt O43251-10, residues 100-194)
Method: RNA Bind-n-Seq
Form: RNA
Matrix: in vitro
Tested at: 365 nM
Setting: natural RNA segment, single round, ends assumed
Baseline: no-protein control
Reading: higher = stronger binding
Measurement: RBNS enrichment (R)
Constant ends, left off below: GGGAGUUCUACAGUCCGACGAUC … UGGAAUUCUCGGGUGCCAA
Target sequence (chain): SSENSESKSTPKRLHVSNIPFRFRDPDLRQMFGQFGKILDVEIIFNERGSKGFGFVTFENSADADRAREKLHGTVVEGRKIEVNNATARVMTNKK
Sequence = CCUCCCUGUUGGGAGCAAUCUGUACGUCUGUUUUGUCAGCUUCAGGUUCUGGUACUUUGAAGUCAAUGCUGUCAGGCCAGGGAAAUAAAAUAAUUGCUUACCUUAAAAGU; value = 0.298
Sequence = GGUUAAAUAAAAACACUUGGGGGUAAGAGGGCUUUCUUCAGAGACUCCCAGGUGGGAGUGCCUCUAGUCUGGUGGUCCUCAAAGACUCAUCCACAGCAGCAUCUGCCCAU; value = 1.87
Sequence = GUGCCACGAGUGUUGAACCUCAUCCCUUCCUGUGUCCUGGGCUGAGUGACCAGGUCAGUGGCCCUGCCCGUGAAGGCUGGCGAUUAACUGUGGCAGCAGACAUGUCCUGU; value = 0.314
Sequence = UACUUUCCCAAGUUCCUCACGAGGGUUGCAUAUGCUUUAGAGGGUCCACAAUGCUUUUGUUGUCUUGUCCUGCUUCUCUAGUCCAGGGGAGACCAAAAGCUCAUACUCCU; value = 0.531
Sequence = CGCCUCGCAGAUUUGCCAAGUAUCCGCUUCCUGUGGAAGCAAGACCAAAAGGAAAUCAACUGAGUGGGUGUUUGGAAGAGGAAGGAGCAACUCUCGGGCAGCCUGCCCAA; value = 0.751
Sequence = CCUGAUCUCCCUUUCCUGUAGACUGCAGGUUGCUCCUGUCCCUUGAGAUCUCAGUUAGGAGACACUGCUGUUUAUUUGACAAAGAAACUCAAGUGUGGGAUGGGGGGAAG; value = 0.357
Sequence = GAAAAUAAUUUGUAAAAUGUCAUUCGAAGGUUAAUGAUGAUUGUGAUGUUUAGGAAUGUUUGUCUCAGCCACAGUUCCUUCAUAGCUUUUCCAAAAUGAAUUGGGAAAAA; value = 2.13
Sequence = CCUUUCUUCAGACUCCGUCCAAGGAGAUGCUCUCCCCGGUCUUCUGCUGCAGAUAGGAUCCUUCCCUUGUCUCCAUUCCUCUCCUCCCAAAGGGAGAGGGGCAAAUGGUU; value = 0.22
Sequence = CCCCAAGUCCAGUACCUCUGGUAAAGUGGACUUCUUCCCCCAUCCCUAGAACCAGGGACCUAGAAACCACCAUUGGAAAGUCCCCAGGGAAUGGAAUACAGAGCCCAAGC; value = 0.38
Sequence = UUAAAUUAAAAUGUGGUAAGUAGGAAGCAAGAACUUAUUCUGUGUUUUUACGCAGCCAUACACUUACUUUAAUCUAACUCAUUCUGUGGCUAGGAUUGAUAUAGGAAUCA; value = 0.301
Sequence = ACAAUAAGUUCAGGAGCUGUGCCAAGCACUUUCCUCUUUUACAGCUGGAGAUCACUGGAAAGGUGUCUCAGUCACAAAACUUCUCCCUCUACUACUGGAUGAAAUGUCUG; value = 0.398
Sequence = CCGUGUGCUUUAAAAAGGUGUUGUUAUGAAGUUUGCUGUUCUGGCAAUAAACUUGCAGACCUUGGAAGUGCUUGUGUUUUGAUUUCUAAUGCAUUUAUGCAUACAAAGAC; value = 0.283

Block 4
Target: Ras GTPase-activating protein-binding protein 1, full length (G3BP1, Homo sapiens, UniProt Q13283)
UniProt Q13283, sequence (whole entry, looked up): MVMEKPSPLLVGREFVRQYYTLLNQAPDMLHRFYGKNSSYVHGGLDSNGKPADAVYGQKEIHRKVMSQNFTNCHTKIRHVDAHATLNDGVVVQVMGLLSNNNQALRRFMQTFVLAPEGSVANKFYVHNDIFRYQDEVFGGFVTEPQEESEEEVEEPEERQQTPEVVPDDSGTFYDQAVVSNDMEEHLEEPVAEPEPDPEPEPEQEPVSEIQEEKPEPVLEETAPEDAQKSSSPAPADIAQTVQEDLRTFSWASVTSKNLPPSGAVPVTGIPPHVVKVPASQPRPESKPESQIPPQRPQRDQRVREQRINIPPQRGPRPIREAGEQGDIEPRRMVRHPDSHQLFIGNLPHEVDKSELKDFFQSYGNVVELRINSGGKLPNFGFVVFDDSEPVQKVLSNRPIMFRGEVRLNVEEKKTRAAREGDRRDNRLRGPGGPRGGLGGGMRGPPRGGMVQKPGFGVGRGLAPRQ
Method: RNA Bind-n-Seq
Form: RNA
Matrix: in vitro
Tested at: 200 nM
Setting: whole 134-nt RNA, ends assumed
With: 150 mM LiCl
Baseline: input library
Reading: higher = stronger binding
Measurement: log2 enrichment
Library: 7-deaza-guanosine replaces G
Constant ends, left off below: GGGAGUUCUACAGUCCGACGAUC … UGGAAUUCUCGGGUGUCAAGG
Sequence = GUCCUGUGCUACACAUCGUAUGUACCGAAUCGGGGUUUUUGGGGAGGGGUUUUUGGGGAAAGUAUUAUGUUACGCCGUUCGGAUCUGCAC; value = 0.0776
Sequence = UGGGAGGUGGAUUUUGUUUAUUUUUUUAGCUCAUUUCCAGGGGUGGGAAUUUUUUUUUAAUGUGUGUCAUGAAUAAAGUUGUUUUUGAAA; value = -0.43
Sequence = UGGGAGGUGGAUUUUGUUUAUUUUUUUAGCUCAAUUCCAGGGGUGGGAAUUUUUUUUUAAUAUGUGUCAUGAAUAAAGUUGUUUUUGAAA; value = 0.234
Sequence = GUCCUGUGCUACACAUCGUAUGUACCGAAUCGGGAAAAAAAGGGUGGGAAAAAAAGGGAAAGUAUUAUGUUACGCCGUUCGGAUCUGCAC; value = -0.471
Sequence = AAGUCCUGUGCUACACAUCGUAUGUACCGAAUCGGGGAAAGGGAAAGGGGAAAGGGAAAGUAUUAUGUUACGCCGUUCGGAUCUGCACUU; value = 0.278
Sequence = UAACUUUAGUGGAGGAUCUGAUGGAUAUGGCAGUGGACGUGGAUUUGGGGAUGGCUAUAAUGGGUAUGGAGGAGGACCUGGAGGUGGCAA; value = 0.0466
Sequence = CCUGUGCUACACAUCGUAUGUACCGAAUCGGGUUUUUUUGGGUUUUUUUGGGUUUUUUUGGAAAGUAUUAUGUUACGCCGUUCGGAUCUG; value = 1.26
Sequence = AAGUCCUGUGCUACACAUCGUAUGUACCGAAUCGGAAAGGAAAAAAAGGUUUUUGGAAAGUAUUAUGUUACGCCGUUCGGAUCUGCACUU; value = -1.75
Sequence = CACAGACAACACGCACCCACACAGACACAGAGGGAAGGGGUUGGGAUGGGGACAGGGUACACAGCAGGGCGGGGUAGGACCCCAGCCCCU; value = 0.081
Sequence = CUCAAGUCCUGUGCUACACAUCGUAUGUACCGAAUCGGAAGGGGAAGGGGAAGGAAAGUAUUAUGUUACGCCGUUCGGAUCUGCACUUCC; value = -0.136
Sequence = AAGUCCUGUGCUACACAUCGUAUGUACCGAAUCGGUUUUUGGAAAGGAAAAAAAGGAAAGUAUUAUGUUACGCCGUUCGGAUCUGCACUU; value = -0.923
